# Assay results from different studies.
# Each line is one published result; not all experiments were run side by side. ± gives the spread as reported.
Compound,test system,conditions,AUC(0-t)
CC(C)(C)c1sc2ncnc(Oc3c(F)cccc3OC(F)(F)F)c2c1-c1ccc(Cl)cc1,"wild-type mice, plasma","oral, 30 mg/kg",38000 ng·h/mL
CCOC(=O)c1cc(Cl)cc(NC(=O)c2sc(Cl)cc2S(=O)(=O)N(C)c2ccc(OCC)c(OC)c2)c1,"male C57BL/6 mice, brain","intraperitoneal, 10 mg/kg",13.7 ng·h/g
Cc1c(C(=O)O)ccc2c3n(nc12)[C@@H]1[C@H](C3)N(CC2CC2)[C@@]2(C(=O)Nc3cc(Cl)ccc32)[C@H]1c1cccc(Cl)c1F,"female BALB/c nude mice, SJSA-1 xenograft, plasma","oral, 1 mg/kg twice daily, 2 doses, mean",24 µM·h
Cc1cc(NC(=O)c2cccc3cc(-c4cccc5[nH]nc(N)c45)ccc23)ccc1F,"CD-1 mice, brain","oral, 10 mg/kg",5010 ng·h/g
Cc1cc(C)c(CNC(=O)c2cc(Cl)c3c(c2C)O[C@@](C)([C@H]2CC[C@H](N(C)C)CC2)O3)c(=O)[nH]1,"female CB17 SCID mice, HT-1376 xenograft, plasma","75 mg/kg, day 1",7600 ng·h/mL
CCc1nc(C(N)=O)c(Nc2ccc(N3CCC(N4CCN(C)CC4)CC3)c(OC)c2)nc1NC1CCOCC1,"female FVB mice, MATE1 knockout, plasma","oral, 10 mg/kg, single dose",5480 ± 323 ng·h/mL
CCN1CCN(Cc2ccc(NC(=O)c3ccc(C)c(NC(=O)c4cncc(-c5cccs5)c4)c3)cc2C(F)(F)F)CC1,"C57BL/6 mice, epithelial lining fluid","intraperitoneal, 30 mg/kg",8930 ng·h/mL
CN1CCC[C@H](CN2c3ccccc3Sc3ccccc32)C1.Cl,"ICR mice, fasted female, lymph node","oral, 16 mg/kg",5700 ng·h/mL
COc1cc(C)[nH]c(=O)c1CN1CCc2c(Cl)cc([C@H](OC)C3COC3)c(Cl)c2C1=O,"female CB17 SCID mice, HT-1376 xenograft, plasma","75 mg/kg, day 1",3380 ng·h/mL
CC1(C)CC[C@]2(C(=O)O)CC[C@]3(C)C(=CC[C@@H]4[C@@]5(C)C[C@@H](O)[C@H](OC(=O)/C=C/c6ccc(O)cc6)C(C)(C)[C@@H]5CC[C@]43C)[C@@H]2C1 (relative stereo),"C57BL/6 mice, brain","intraperitoneal, 85 µmol/kg single dose",7.82 nmol·h/g

# For quick reference, copied from above:
Compound,test system,conditions,AUC(0-t)
CC(C)(C)c1sc2ncnc(Oc3c(F)cccc3OC(F)(F)F)c2c1-c1ccc(Cl)cc1,"wild-type mice, plasma","oral, 30 mg/kg",38000 ng·h/mL
